Measured values pooled from the literature.
Parts stem from different laboratories: compare values within a part only.
Chain of UniProt Q9NSY1 (whole entry, looked up): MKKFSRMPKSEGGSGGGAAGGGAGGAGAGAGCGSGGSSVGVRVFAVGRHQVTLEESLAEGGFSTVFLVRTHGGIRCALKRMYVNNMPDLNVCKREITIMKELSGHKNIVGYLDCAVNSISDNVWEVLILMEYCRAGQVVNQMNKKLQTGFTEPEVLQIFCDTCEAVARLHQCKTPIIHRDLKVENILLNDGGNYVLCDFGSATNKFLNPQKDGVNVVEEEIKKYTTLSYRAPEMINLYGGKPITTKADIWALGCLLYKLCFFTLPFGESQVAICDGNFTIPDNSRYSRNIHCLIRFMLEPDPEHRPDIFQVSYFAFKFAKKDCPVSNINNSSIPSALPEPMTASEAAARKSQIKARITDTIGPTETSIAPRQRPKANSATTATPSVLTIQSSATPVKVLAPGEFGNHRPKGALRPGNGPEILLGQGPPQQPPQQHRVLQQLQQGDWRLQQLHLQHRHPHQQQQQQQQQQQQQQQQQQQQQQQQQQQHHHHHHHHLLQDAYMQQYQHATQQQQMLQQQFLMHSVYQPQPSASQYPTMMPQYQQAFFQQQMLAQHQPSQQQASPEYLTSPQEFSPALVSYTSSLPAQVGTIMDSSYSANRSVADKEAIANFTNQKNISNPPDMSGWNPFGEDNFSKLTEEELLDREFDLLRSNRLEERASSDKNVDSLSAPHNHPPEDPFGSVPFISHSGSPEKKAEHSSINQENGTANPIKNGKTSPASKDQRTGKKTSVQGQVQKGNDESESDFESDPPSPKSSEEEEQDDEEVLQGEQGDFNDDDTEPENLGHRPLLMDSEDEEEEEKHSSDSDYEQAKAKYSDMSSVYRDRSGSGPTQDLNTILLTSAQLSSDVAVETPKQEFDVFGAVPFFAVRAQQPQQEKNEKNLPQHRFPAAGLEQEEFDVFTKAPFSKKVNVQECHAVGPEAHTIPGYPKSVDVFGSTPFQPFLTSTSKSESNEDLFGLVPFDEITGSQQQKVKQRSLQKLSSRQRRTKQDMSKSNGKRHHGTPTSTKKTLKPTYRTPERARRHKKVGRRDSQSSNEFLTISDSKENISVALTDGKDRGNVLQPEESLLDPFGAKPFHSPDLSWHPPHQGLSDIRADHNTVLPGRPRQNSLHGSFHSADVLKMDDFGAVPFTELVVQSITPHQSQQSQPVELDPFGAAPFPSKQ
Chain of UniProt Q15418 (whole entry, looked up): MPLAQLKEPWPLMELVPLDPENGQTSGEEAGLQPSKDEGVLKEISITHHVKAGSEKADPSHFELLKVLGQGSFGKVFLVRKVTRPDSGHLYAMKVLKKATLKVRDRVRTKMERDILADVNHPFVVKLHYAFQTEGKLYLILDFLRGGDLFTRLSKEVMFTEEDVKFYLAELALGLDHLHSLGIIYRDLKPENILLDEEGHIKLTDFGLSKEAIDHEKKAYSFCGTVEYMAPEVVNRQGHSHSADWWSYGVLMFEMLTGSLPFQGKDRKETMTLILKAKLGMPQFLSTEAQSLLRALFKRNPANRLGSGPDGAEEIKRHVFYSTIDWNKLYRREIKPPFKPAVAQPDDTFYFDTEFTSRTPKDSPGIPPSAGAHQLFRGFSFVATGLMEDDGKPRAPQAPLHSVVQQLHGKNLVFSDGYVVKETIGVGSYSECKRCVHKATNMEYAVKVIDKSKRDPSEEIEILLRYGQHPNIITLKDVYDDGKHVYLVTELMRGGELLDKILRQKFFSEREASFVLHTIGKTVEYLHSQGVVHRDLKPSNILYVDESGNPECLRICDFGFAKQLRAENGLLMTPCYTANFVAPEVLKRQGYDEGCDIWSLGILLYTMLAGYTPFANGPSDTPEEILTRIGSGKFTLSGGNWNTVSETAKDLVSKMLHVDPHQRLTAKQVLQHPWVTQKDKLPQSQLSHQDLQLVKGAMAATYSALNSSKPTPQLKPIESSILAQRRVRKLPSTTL
Chain of UniProt P51617 (whole entry, looked up): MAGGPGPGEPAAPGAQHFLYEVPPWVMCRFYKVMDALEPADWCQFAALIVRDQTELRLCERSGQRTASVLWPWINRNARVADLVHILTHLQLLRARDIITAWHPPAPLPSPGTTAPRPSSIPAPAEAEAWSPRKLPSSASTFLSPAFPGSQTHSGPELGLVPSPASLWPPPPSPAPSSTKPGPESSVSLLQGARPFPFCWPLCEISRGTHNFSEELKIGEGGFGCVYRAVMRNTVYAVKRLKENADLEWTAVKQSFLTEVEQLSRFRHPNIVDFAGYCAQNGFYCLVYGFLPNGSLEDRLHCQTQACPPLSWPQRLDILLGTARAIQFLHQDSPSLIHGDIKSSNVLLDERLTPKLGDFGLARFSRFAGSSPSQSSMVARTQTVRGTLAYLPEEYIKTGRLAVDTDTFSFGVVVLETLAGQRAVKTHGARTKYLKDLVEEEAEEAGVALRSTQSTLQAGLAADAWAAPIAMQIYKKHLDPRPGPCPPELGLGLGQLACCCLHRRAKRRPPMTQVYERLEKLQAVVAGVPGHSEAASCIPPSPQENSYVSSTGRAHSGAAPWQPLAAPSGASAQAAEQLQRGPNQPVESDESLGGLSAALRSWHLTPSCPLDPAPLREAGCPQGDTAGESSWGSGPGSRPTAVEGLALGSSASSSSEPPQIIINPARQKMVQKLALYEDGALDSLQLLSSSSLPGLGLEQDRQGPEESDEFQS
Chain of UniProt P49761 (whole entry, looked up): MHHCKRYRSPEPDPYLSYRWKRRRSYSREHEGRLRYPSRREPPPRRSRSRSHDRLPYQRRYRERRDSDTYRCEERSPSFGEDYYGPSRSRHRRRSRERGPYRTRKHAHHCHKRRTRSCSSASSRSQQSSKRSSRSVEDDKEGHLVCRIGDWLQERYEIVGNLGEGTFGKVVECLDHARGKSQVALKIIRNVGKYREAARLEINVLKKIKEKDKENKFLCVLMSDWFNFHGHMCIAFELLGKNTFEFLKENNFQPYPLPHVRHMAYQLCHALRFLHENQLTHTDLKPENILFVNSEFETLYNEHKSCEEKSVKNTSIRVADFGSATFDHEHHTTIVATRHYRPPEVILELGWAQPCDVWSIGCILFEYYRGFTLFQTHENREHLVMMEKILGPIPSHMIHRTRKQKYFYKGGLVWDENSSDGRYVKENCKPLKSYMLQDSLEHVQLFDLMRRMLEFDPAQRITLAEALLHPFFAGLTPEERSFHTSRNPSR
Chain of UniProt Q7KZI7 (whole entry, looked up): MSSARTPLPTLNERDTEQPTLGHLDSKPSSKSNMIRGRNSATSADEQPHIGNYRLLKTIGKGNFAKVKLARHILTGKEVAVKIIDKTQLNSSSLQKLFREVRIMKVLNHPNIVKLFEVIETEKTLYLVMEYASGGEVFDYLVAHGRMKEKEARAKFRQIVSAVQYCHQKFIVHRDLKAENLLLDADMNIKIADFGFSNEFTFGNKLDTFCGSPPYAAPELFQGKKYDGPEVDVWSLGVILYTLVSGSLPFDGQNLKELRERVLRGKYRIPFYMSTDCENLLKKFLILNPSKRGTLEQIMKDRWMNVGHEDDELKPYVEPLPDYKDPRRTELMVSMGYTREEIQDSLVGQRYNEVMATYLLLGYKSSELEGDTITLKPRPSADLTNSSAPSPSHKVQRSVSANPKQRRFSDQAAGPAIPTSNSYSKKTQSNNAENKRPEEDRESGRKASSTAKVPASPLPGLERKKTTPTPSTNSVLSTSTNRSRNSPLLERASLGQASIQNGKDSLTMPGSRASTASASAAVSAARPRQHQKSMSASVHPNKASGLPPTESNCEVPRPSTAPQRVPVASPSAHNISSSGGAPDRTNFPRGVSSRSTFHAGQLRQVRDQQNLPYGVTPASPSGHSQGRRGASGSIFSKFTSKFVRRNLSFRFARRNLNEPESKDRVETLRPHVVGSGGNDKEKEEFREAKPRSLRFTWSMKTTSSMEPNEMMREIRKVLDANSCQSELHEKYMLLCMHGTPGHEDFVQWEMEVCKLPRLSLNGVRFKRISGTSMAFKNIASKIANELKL
Chain of UniProt Q00526 (whole entry, looked up): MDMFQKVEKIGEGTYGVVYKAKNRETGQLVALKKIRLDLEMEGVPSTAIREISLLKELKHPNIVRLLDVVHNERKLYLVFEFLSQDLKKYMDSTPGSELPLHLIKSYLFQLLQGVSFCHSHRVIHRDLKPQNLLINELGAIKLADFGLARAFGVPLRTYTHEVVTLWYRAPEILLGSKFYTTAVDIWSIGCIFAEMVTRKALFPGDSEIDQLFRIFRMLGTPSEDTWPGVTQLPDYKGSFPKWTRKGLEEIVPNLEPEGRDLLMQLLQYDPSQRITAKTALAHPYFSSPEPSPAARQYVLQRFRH

Set 1
Target: Mitogen-activated protein kinase kinase kinase kinase 5 (MAP4K5, Homo sapiens, UniProt Q9Y4K4)
Chain of UniProt Q9Y4K4 (whole entry, looked up): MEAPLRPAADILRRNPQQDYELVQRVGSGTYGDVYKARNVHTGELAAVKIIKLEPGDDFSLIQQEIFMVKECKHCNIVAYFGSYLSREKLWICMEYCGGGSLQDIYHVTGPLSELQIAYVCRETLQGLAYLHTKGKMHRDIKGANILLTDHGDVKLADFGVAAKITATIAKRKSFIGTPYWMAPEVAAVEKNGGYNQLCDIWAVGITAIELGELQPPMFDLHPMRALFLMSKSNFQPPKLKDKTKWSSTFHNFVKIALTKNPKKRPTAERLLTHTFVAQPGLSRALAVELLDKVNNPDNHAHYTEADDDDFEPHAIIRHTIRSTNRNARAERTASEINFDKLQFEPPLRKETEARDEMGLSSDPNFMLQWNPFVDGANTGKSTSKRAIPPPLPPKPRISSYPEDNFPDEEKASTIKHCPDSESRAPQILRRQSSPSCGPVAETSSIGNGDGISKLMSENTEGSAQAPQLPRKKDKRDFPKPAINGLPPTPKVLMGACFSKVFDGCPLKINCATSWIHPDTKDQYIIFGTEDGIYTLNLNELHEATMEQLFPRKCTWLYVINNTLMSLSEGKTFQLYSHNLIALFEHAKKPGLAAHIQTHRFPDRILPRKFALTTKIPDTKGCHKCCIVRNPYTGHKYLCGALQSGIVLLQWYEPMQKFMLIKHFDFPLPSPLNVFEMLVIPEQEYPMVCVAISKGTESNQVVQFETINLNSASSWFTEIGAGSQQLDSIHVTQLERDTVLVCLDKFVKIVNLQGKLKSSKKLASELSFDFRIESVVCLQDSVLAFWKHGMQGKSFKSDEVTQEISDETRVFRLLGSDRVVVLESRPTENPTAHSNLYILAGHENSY
Read-out: enzyme activity
Action: inhibitor
Concentration: 0.5 µM
Baseline: control
Endpoint: remaining activity
Structure (SMILES) = Ic1cccc(CSc2nnc(-c3ccncc3)o2)c1; value = 99.5%
Structure (SMILES) = Cc1cn(-c2cc(NC(=O)c3ccc(C)c(Nc4nccc(-c5cccnc5)n4)c3)cc(C(F)(F)F)c2)cn1; value = 100%
Structure (SMILES) = c1ccc(-c2cnc(Nc3ccc(OCCN4CCCC4)cc3)s2)cc1; value = 72.5%
Structure (SMILES) = COc1cc2c(cc1OC)-c1[nH]nc(Nc3cccc(F)c3)c1C2; value = 89%
Structure (SMILES) = O=C(NC(NC(=S)Nc1ccc(F)c([N+](=O)[O-])c1)C(Cl)(Cl)Cl)C(c1ccccc1)c1ccccc1 (stereo not shown); value = 91%
Structure (SMILES) = CCN(CC)CCNC(=O)c1c(C)[nH]c(/C=C2\C(=O)Nc3ccc(Cl)cc32)c1C; value = 0.833%
Structure (SMILES) = Cc1nc2cc3nc(-c4cccs4)cnc3cc2n1C; value = 94.8%
Structure (SMILES) = Cn1nc2c3c(cccc31)C(=O)c1ccccc1-2; value = 86%
Structure (SMILES) = O=C1C(Cl)=C(N2C(=O)CCC2=O)C(=O)c2ccccc21; value = 90.4%
Structure (SMILES) = CCN(CC)C(=O)c1ccc(Nc2nc(OCC3CCCCC3)c3[nH]cnc3n2)cc1; value = 78%
Structure (SMILES) = N#Cc1c(NC(=O)c2cccc3ccccc23)sc2c1CCCC2; value = 93.8%
Structure (SMILES) = Cc1cc2ncc(-c3ccccc3)nc2cc1C; value = 89.3%
Structure (SMILES) = O=C(Nc1cccc(Nc2nccc(Nc3cccc(C(F)(F)F)c3)n2)c1)C1CC1; value = 94.9%
Structure (SMILES) = Nc1cccc(-c2cc3c(Oc4cccc(O)c4)ncnc3[nH]2)c1; value = 18.4%
Structure (SMILES) = CN(C)C[C@H]1CCn2c(c(C3=C(c4cn(C)c5ccccc45)C(=O)NC3=O)c3ccccc32)C1; value = 99.9%
Structure (SMILES) = CN([C@@H](Cc1ccc(OS(=O)(=O)c2cccc3cnccc23)cc1)C(=O)N1CCN(c2ccccc2)CC1)S(=O)(=O)c1cccc2cnccc12; value = 96.3%
Structure (SMILES) = c1ccc(-c2[nH]ncc2-c2ccnc3ccccc23)nc1; value = 87.4%
Structure (SMILES) = C[C@@H]1CCN(C(=O)CC#N)C[C@@H]1N(C)c1ncnc2[nH]ccc12; value = 112%
Structure (SMILES) = COc1cc2ncnc(Nc3cccc(Cl)c3)c2cc1OC; value = 59.5%
Structure (SMILES) = O=c1cc(-c2cccc3c2Sc2ccccc2S3)oc(N2CCOCC2)c1; value = 93.6%
Structure (SMILES) = CCN(CC)CCNC(=O)c1c(C)[nH]c(/C=C2\C(=O)Nc3ccc(F)cc32)c1C; value = 4.06%
Structure (SMILES) = COc1cc2ncnc(Nc3ccc(O)c(Br)c3)c2cc1OC; value = 28.9%

Set 2
SMILES: Cc1nc(Nc2ncc(C(=O)Nc3c(C)cccc3Cl)s2)cc(N2CCN(CCO)CC2)n1
Action: inhibitor
Endpoint: inhibition
target = PLK1 (Homo sapiens, UniProt P53350); concentration = 1 µM; value = < 50%
target = PAK5 (Homo sapiens, UniProt Q9P286); concentration = 10 µM; value = < 50%
target = MAP2K1 (Homo sapiens, UniProt Q02750); concentration = 1 µM; value = < 50%
target = COQ8A (Homo sapiens, UniProt Q8NI60); concentration = 1 µM; value = < 50%
target = BMP2K (Homo sapiens, UniProt Q9NSY1); concentration = 10 µM; value = < 50%
target = ULK1 (Homo sapiens, UniProt O75385); concentration = 10 µM; value = < 50%
target = STK38L (Homo sapiens, UniProt Q9Y2H1); concentration = 10 µM; value = < 50%

Set 3
Structure (SMILES): FC(F)(F)c1ccc2c(c1)nc(-c1cccnc1)n2C1CC1
Read-out: cell-free assay
Technique: competition with immobilised ligand
Concentration: 1 µM
Endpoint: remaining binding
target = TIE1 (Homo sapiens, UniProt P35590); value = 100%
target = ERBB2 (Homo sapiens, UniProt P04626); value = 100%
target = GRK4 (Homo sapiens, UniProt P32298); value = 100%
target = NUAK2 (Homo sapiens, UniProt Q9H093); value = 100%
target = Non-receptor tyrosine-protein kinase TYK2, JH2 (TYK2, Homo sapiens, UniProt P29597); value = 100%
target = MAPK12 (Homo sapiens, UniProt P53778); value = 100%
target = CDK3 (Homo sapiens, UniProt Q00526); value = 100%
target = NIM1K (Homo sapiens, UniProt Q8IY84); value = 100%
target = CLK3 (Homo sapiens, UniProt P49761); value = 100%
target = MARK3 (Homo sapiens, UniProt P27448); value = 100%
target = PHKG2 (Homo sapiens, UniProt P15735); value = 100%
target = Tyrosine-protein kinase JAK2, JH1 (JAK2, Homo sapiens, UniProt O60674); value = 100%
target = PRKAA2 (Homo sapiens, UniProt P54646); value = 100%
target = MAPK10 (Homo sapiens, UniProt P53779); value = 100%
target = Ribosomal protein S6 kinase alpha-1, N-terminal kinase domain (RPS6KA1, Homo sapiens, UniProt Q15418); value = 100%
target = IRAK1 (Homo sapiens, UniProt P51617); value = 100%
target = NEK9 (Homo sapiens, UniProt Q8TD19); value = 100%
target = STK33 (Homo sapiens, UniProt Q9BYT3); value = 100%
target = CAMKK1 (Homo sapiens, UniProt Q8N5S9); value = 100%
target = MARK2 (Homo sapiens, UniProt Q7KZI7); value = 100%
target = LCK (Homo sapiens, UniProt P06239); value = 100%
target = MAP3K9 (Homo sapiens, UniProt P80192); value = 100%
target = ITK (Homo sapiens, UniProt Q08881); value = 100%
target = Ribosomal protein S6 kinase alpha-5, N-terminal kinase domain (RPS6KA5, Homo sapiens, UniProt O75582); value = 100%
target = ROS1 (Homo sapiens, UniProt P08922); value = 100%

Set 4
Cell line: Huh-7
Concentration: 10 µM
Time: 24 h
Endpoint: viability
SMILES = OCCN1CCN(CCCN2c3ccccc3Sc3ccc(Cl)cc32)CC1; value = 94%
SMILES = CCOC(=O)[C@H](CCc1ccccc1)N[C@@H](C)C(=O)N1[C@H](C(=O)O)C[C@@H]2CCC[C@@H]21; value = 99.8%
SMILES = S=P(N1CC1)(N1CC1)N1CC1; value = 64.5%
SMILES = CN(Cc1cc(Br)cc(Br)c1N)C1CCCCC1; value = 101%
SMILES = COC(=O)[C@H](c1ccccc1Cl)N1CCc2sccc2C1; value = 101%
SMILES = Nc1nc2ncc(CNc3ccc(C(=O)N[C@@H](CCC(=O)O)C(=O)O)cc3)nc2c(=O)[nH]1; value = 102%
SMILES = CN1CCC[C@@H]1Cc1c[nH]c2ccc(CCS(=O)(=O)c3ccccc3)cc12; value = 97.6%

Excerpt of the above (set 1):
Structure (SMILES) = O=C1C(Cl)=C(N2C(=O)CCC2=O)C(=O)c2ccccc21; value = 90.4%
Structure (SMILES) = CCN(CC)C(=O)c1ccc(Nc2nc(OCC3CCCCC3)c3[nH]cnc3n2)cc1; value = 78%
Structure (SMILES) = N#Cc1c(NC(=O)c2cccc3ccccc23)sc2c1CCCC2; value = 93.8%
Structure (SMILES) = Cc1cc2ncc(-c3ccccc3)nc2cc1C; value = 89.3%
Structure (SMILES) = O=C(Nc1cccc(Nc2nccc(Nc3cccc(C(F)(F)F)c3)n2)c1)C1CC1; value = 94.9%
Structure (SMILES) = Nc1cccc(-c2cc3c(Oc4cccc(O)c4)ncnc3[nH]2)c1; value = 18.4%
Structure (SMILES) = CN(C)C[C@H]1CCn2c(c(C3=C(c4cn(C)c5ccccc45)C(=O)NC3=O)c3ccccc32)C1; value = 99.9%
